Measured values gathered from unrelated publications.
Each numbered part is a random draw from the data of one study; scales do not carry over between parts. Positions count from the first letter of the parent shown.
Chain of UniProt O43293 (whole entry, looked up): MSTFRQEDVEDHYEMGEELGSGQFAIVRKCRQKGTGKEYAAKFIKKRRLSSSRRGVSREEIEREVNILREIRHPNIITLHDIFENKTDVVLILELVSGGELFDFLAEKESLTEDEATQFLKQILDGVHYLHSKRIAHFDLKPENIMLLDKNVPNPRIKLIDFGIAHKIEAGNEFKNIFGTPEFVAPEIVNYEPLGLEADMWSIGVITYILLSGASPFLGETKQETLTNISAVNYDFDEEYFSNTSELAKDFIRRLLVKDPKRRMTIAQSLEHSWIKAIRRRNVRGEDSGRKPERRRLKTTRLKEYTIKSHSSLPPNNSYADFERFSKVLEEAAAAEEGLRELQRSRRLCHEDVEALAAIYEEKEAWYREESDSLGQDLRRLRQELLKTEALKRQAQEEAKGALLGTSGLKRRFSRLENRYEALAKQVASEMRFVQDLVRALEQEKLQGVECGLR

Block 1 — technique: protein-binding microarray; form: double-stranded DNA, one strand shown; medium: in vitro; concentration: not given; direction: higher = stronger binding
Target: Protein max, full length (MAX, Homo sapiens, UniProt P61244-2, residues 1-151)
Setting: k-mer, scored over probes, only values ≥0.25
Strand | E-score
CCCCGCAC | 0.289
AGCACACA | 0.278
CGTGTAGA | 0.312
CATATGAC | 0.362
ACGGGGTA | 0.3
CCCACCCA | 0.288
CACGAGGA | 0.471
CGTGATGC | 0.342

Block 2 — target: CCNB3, cyclin fold, Cln2 fusion (human); technique: yeast growth competition, sequencing; medium: yeast; setting: strong parent motif; relative to: not given; direction: higher = stronger binding
Starting sequence: BRCA2 docking peptide (human); PSIKRNLLNEFDR
Change | normalised enrichment score
PSIKRNLLNIFDR [E10I] | 0.154
PSIKRNLLNTFDR [E10T] | -0.725
PSIKRILLNEFDR [N6I] | 0.156
PSIKRNLLNEWDR [F11W] | -0.0693
PSIKRVLLNEFDR [N6V] | 0.416
TSIKRNLLNEFDR [P1T] | 1.1
PRIKRNLLNEFDR [S2R] | 1.16
PSIKRNLLNEFDQ [R13Q] | 0.943

Block 3 — technique: RNAcompete; form: RNA; medium: in vitro; concentration: 20 nM; setting: 7-mer, probes averaged, single round; relative to: mean of 7-mers; direction: higher = stronger binding
Target: PABPC1L2, full length, GST fusion (mouse, UniProt A0ABA7IW68)
Target sequence (chain): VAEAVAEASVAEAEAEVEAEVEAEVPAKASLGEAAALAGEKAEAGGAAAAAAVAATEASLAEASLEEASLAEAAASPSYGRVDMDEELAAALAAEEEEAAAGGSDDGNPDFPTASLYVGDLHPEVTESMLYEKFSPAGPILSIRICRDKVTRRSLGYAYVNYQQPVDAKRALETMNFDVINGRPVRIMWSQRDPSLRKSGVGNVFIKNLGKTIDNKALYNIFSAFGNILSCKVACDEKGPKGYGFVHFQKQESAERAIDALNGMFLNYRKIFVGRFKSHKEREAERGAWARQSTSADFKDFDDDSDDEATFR
Strand | 7-mer Z-score
GAGCAAU | 0.108
CAAUACC | -0.132
CGGGGAG | 0.341
CGCCAUC | -0.353
UCUCGGG | -0.0917
AGGUGAU | 0.0315
GUAUUGG | 0.00979
CUUAUCU | -0.374

Other studies, line by line
Compound | target | assay | conditions | scale | quantity | value
CN([C@@H](Cc1ccc(OS(=O)(=O)c2cccc3cnccc23)cc1)C(=O)N1CCN(c2ccccc2)CC1)S(=O)(=O)c1cccc2cnccc12 | Death-associated protein kinase 3 (DAPK3, Homo sapiens, UniProt O43293) | enzyme activity, inhibitor | 0.5 µM | relative to: control | remaining activity | 106%

For quick reference, copied from above (block 1):
Strand | E-score
CCCACCCA | 0.288
CACGAGGA | 0.471
CGTGATGC | 0.342
